Published values collected from several papers.
Protocols differ between the studies behind these lines. “And” joins repeats or separate records; there may be more than shown. ± gives the spread as reported.
ESR2: Estrogen receptor beta (ESR2, Homo sapiens, UniProt Q92731)
UniProt Q92731, sequence (whole entry, looked up): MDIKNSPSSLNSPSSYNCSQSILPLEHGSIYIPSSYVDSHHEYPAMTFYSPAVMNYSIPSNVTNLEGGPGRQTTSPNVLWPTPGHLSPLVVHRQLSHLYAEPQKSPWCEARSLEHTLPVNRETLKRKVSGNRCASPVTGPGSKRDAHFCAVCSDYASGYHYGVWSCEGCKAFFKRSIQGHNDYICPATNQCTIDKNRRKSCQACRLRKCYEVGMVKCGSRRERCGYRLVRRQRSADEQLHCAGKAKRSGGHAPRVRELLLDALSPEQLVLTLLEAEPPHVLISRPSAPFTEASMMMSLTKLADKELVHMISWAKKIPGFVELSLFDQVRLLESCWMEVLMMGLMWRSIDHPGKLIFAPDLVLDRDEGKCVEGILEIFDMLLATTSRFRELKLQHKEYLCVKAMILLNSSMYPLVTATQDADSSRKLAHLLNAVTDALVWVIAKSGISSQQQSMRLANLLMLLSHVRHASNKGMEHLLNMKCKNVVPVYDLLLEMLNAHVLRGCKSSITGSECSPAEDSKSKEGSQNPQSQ
GPR84: G-protein coupled receptor 84 (GPR84, Homo sapiens, UniProt Q9NQS5)
UniProt Q9NQS5, sequence (whole entry, looked up): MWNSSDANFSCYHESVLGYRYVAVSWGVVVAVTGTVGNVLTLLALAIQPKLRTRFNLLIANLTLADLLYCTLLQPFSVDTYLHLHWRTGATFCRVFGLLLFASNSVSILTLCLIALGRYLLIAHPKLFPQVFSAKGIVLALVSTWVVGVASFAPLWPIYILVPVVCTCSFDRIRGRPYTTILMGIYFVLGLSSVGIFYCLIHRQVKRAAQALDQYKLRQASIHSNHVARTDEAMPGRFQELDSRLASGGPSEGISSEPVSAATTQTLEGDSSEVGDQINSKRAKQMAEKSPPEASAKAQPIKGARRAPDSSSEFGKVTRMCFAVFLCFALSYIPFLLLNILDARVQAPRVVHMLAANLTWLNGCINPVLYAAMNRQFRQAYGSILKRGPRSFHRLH
UniProt Q92633, sequence (whole entry, unmodified, looked up): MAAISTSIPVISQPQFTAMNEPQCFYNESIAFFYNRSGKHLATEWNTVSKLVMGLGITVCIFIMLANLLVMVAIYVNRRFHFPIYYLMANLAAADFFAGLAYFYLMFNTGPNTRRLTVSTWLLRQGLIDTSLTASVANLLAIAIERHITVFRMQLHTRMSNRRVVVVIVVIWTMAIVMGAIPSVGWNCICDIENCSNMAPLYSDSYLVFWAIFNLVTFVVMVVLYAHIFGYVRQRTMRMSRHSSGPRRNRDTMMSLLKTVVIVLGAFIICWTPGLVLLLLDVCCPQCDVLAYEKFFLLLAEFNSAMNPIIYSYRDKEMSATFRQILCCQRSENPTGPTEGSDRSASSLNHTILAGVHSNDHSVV
UniProt P34995, sequence (whole entry, unmodified, looked up): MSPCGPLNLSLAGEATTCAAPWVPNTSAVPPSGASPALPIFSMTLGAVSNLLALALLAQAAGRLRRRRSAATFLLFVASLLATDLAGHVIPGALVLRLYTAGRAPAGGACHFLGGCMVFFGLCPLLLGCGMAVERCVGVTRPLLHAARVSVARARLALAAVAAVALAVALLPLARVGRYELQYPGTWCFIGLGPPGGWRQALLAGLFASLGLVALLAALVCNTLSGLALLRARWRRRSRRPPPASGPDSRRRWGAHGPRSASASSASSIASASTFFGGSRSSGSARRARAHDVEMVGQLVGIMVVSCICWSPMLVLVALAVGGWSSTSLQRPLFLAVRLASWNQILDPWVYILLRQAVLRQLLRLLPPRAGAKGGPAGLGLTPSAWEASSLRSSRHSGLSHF
UniProt Q96GD4, sequence (whole entry, looked up): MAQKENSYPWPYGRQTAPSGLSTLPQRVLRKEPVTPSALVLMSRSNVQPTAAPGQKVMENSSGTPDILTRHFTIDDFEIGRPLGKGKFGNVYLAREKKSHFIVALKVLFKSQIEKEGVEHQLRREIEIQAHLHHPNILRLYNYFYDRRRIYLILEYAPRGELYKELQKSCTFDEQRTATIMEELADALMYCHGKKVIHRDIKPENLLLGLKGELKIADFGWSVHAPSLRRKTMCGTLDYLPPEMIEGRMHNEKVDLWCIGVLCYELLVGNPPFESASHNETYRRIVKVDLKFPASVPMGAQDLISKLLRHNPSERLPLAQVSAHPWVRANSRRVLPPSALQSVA

Compound	target	test	system	conditions	EC50
COc1cc2oc(-c3ccccc3)cc(=O)c2c(OC)c1OC	ESR2	array formation, agonist	GFP-ERβ PRL-HeLa	1 h	1750 nM
CCCCCCCCN(C)c1cc(=O)[nH]c(=O)[nH]1	GPR84	agonist			631 nM
O=C(/C=C/c1ccc(O)cc1)c1ccccc1	ESR2	array formation, agonist	GFP-ERβ PRL-HeLa	1 h	741 nM
CCCCC[C@H](O)/C=C/[C@H]1[C@H](O)CC(=O)[C@@H]1C/C=C\CCCC(=O)O	Prostaglandin E2 receptor EP1 subtype (PTGER1, Homo sapiens, UniProt P34995, Q344A)	IP1 accumulation, agonist	AD293	EP1 Q344A mutant	104 nM
O=C(/C=C/c1ccc(O)c(O)c1)c1ccc(O)cc1O	ESR2	array formation, agonist	GFP-ERβ PRL-HeLa	1 h	454 nM
O=c1cc(NCCOc2ccccc2)[nH]c(=O)[nH]1	GPR84	agonist			741 nM
COc1cc(Nc2ncc3c(n2)-c2ccc(Cl)cc2C(c2c(F)cccc2OC)=NC3)ccc1C(=O)NCCOCCOCCNC(=O)COc1cccc2c1C(=O)N(C1CCC(=O)NC1=O)C2=O (stereo not drawn)	Aurora kinase B (AURKB, Homo sapiens, UniProt Q96GD4)	NanoBRET target engagement	HEK293 expressing NanoLuc fusion	2 h	1420 ± 135 nM
Cc1ccc(CCNc2cc(=O)[nH]c(=O)[nH]2)cc1	GPR84	agonist			324 nM
CCc1oc2c([C@H](CO)N(CC)CC)cccc2c1C	Lysophosphatidic acid receptor 1 (LPAR1, Homo sapiens, UniProt Q92633, W210A)	G-protein dissociation, agonist, NanoBiT	human cells		7.2 nM and 7.21 nM

A few entries again:
Compound	target	test	system	conditions	EC50
O=C(/C=C/c1ccc(O)cc1)c1ccccc1	ESR2	array formation, agonist	GFP-ERβ PRL-HeLa	1 h	741 nM
